Measurements collected from several papers.
Each numbered part is a random draw from the data of one study; scales do not carry over between parts. Changes are numbered by the printed parent chain.

Study 1
Target: RNA binding protein fox-1 homolog 2, RRM domain, GST-SBP tag (RBFOX2, Homo sapiens, UniProt O43251-10, residues 100-194)
Method: RNA Bind-n-Seq
Form: RNA
Sample: in vitro
Tested at: 365 nM
Setting: natural RNA segment, single round, ends assumed
Relative to: no-protein control
Reading: higher = stronger binding
Target sequence (chain): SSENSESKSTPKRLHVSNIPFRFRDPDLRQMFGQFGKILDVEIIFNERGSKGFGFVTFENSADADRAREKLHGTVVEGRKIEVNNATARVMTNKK
Sequence	RBNS enrichment (R)
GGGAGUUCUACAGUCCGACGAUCGGAGCUUGUCUCUUCCAUAGACCUCCAAAGCUUCAGGGAAGGGAAAACCCAGGGUAUCUUCCCUCAGCAGCCUUCCAGCCGAGGACCAGAAAAGCUAUGAUUCCAUUAGAUGGAAUUCUCGGGUGCCAA	0.48
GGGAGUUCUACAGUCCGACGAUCAAGCUAACCGCUGGCCCCGAAUCACGCAGCCCGUCCUUAAACGGCCUCGCCAUGUGCAUUGCCACCUCUGUUGUCCAGACGGGCACAUGCAGCACGCUGUGGUGACAGCCUGGAAUUCUCGGGUGCCAA	0.442
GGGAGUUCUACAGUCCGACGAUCUCCAGGCAAGGAAAACUGAAGUCAUUGGCCCGAUACAAAACAUUUCCUGCAACGAAGGAGGUGGUGCCGACGUGCUGCUUCCCAUCACCAGCAGCUGCUCGACAAGGGGCUGGAAUUCUCGGGUGCCAA	0.45
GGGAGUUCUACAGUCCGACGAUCCCAGGCCCUGGAAUCCUGAGACUCGCGUUUCCUUGGCCAGUGGUAACACAGGACGUGUGUGCGCAUGUGCAAGUGUGGAUGUAUGUGUGUGCGUGUGUUUUGCUCAUUUCUGGAAUUCUCGGGUGCCAA	1.32
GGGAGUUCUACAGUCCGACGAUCACAGAAGUGAGCAAAUAAAGUGAGGAAGAAAUCUAUAUAUGAGAUAAUAUAGAUUGUAUUGAAAUCUUGCCUGUGGGUGAGGUUUUUCCUUCCUCCUCCCUGCCCCCUGCUGGAAUUCUCGGGUGCCAA	0.432
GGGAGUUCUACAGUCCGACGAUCUUGUCUGUGUACAGUUUUUAGAACAUUACAAAGGAUCUGUUUGCUUAGCUGUCAACAAAAAGAAAACCUGAAGGAGCAUUUGGAAGUCAAUUUGAGGUUUUUUUUUUUGUUGGAAUUCUCGGGUGCCAA	0.722
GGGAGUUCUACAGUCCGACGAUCACCGUGGGACACCUCAUUCCCUACCCCAAACGGGCCUUUUAAUUGUCCUGGUCACUUGUACUGGUUACAGAGCCUCUCAGCGAUGGCUACACCACCCUUCUCACCCUGCCUGGAAUUCUCGGGUGCCAA	0.799
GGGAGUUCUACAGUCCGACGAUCUGUUAAAUUAGAAUGAAUUUAUCUUUACCAAAAACCAUGUUGCGUUCAAAGAGGUGAACAUUAAAAUAUAGAGACAGGACAGAAUGUGUUCUUUUCUCCUUUACCAGUCCUGGAAUUCUCGGGUGCCAA	1.65
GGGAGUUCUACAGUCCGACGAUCGCAGGGAGGAGUGGUACUUAAGCUCCCCUGCCUUAACCUGGGACCAACCUGACCUAACCUAGGAGGGCUCUGAGCCAACCUUGCUCUUGGGGAAGGGGACAGAUUAUGAAUGGAAUUCUCGGGUGCCAA	0.35
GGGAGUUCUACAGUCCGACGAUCUUCUCCAGCUUACCCUAGGGUGACCAAGUAGGGCCUGUCACACCAGGGUGGCGCAGCUUUCUGUGUGAUGCAGAUGUGUCCUGGUUUCGGCAGCGUAGCCAGCUGCUGCUUGGAAUUCUCGGGUGCCAA	0.474
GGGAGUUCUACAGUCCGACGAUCUAUAGACUACUUUCUAUGCAAGACUGAGAUAUGGAAUAGAUAGGAAGAGAUAUGUACUGCUGGGUACAUGGACAGUAAGUGUGUUUUCAGAUGGAGUACCAGCACCGAAAUGGAAUUCUCGGGUGCCAA	0.828
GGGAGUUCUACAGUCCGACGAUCUUAACGCACGCACAGACUUACAUGUCAAGAGUGGACUUUAGACUUUCAUGUGUUAAGUUGCUUGAGUUACACCUUGUGACCCUUCUCCCAUAACAUGGUGUGAGGACGGAUGGAAUUCUCGGGUGCCAA	3.72

Study 2
Target: Histone acetyltransferase KAT6A, winged helix 2, GST fusion (KAT6A, Homo sapiens, UniProt Q92794, residues 85-181)
Method: protein binding microarray
Form: double-stranded DNA, one strand shown
Sample: in vitro
Tested at: not given
Setting: 8-mer, flanks averaged, mean of 2 arrays, mostly near background
Relative to: not given
Reading: higher = stronger binding
Residues (chain): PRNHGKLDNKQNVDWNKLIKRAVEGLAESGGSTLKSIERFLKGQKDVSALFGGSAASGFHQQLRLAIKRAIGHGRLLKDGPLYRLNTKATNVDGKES
Sequence	E-score
CGTGTAGA	-0.0525
GACAAGAC	-0.0408
ACCCGTGA	-0.0485
CACCGCTA	-0.0113
ACGACCCC	-0.11
ACCAGTAT	-0.154
CAGCCGCA	0.161
ACCGTGAT	-0.0675
AGCGTAAA	0.0108
CGGGCGTA	-0.092
AATTATTG	0.0109
CCGGCATA	-0.00105
GCTTTGGA	-0.0196
ATAACTTC	0.0803
CCAAGATA	-0.0171
GACGGAGC	-0.00703
TCCTATAA	-0.127
CCTAAGCA	0.123
AAGATCCC	-0.0159
ACTTCATA	-0.155
AACGGCGC	0.122
CAGTTAGG	-0.0862
TCAGAGGA	0.0389
AGTCTATA	-0.0542
AAGTGGCG	0.0174

Study 3
Target: CCNA2, cyclin fold, Cln2 fusion (human)
Method: yeast growth competition, sequencing
Sample: yeast
Setting: strong parent motif
Relative to: not given
Reading: higher = stronger binding
Parent: E2F1 docking peptide (human); PPVKRRLDLETDH; partner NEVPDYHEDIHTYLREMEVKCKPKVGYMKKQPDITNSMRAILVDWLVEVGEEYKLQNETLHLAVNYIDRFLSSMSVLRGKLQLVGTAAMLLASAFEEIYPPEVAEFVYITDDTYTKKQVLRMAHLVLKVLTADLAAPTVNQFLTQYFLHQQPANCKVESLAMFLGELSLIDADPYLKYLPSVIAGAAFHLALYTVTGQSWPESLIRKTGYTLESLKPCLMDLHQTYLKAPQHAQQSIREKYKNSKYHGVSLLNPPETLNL
Substitution	normalised enrichment score
PPVKRRLMLETDH [D8M]	4.01
DPVKRRLDLETDH [P1D]	2.23
PPVKHRLDLETDH [R5H]	-0.147
WPVKRRLDLETDH [P1W]	4.41
PPVKRHLDLETDH [R6H]	1.76
PPVERRLDLETDH [K4E]	0.287
PPVKRMLDLETDH [R6M]	2.4
PPVKRRLDLEKDH [T11K]	4.21
PPVKSRLDLETDH [R5S]	-0.0468
PPVKRRLVLETDH [D8V]	4.77
PPRKRRLDLETDH [V3R]	0.977
PEVKRRLDLETDH [P2E]	2.77
PPVKRRLKLETDH [D8K]	4.48
PPVKRRLILETDH [D8I]	4.73

Study 4
Target: Sal-like protein 4, full length isoform B (SALL4, Homo sapiens, UniProt Q9UJQ4-2, residues 1-616)
Method: universal PBM
Form: double-stranded DNA, one strand shown
Sample: in vitro
Tested at: not given
Setting: 8-mer, flanks averaged, mean of replicates
Reading: higher = stronger binding
Sequence	E-score
TGAGATAA	0.239
CCGATCCC	-0.271
CGGTGTAA	-0.135
CCGTCGGC	-0.402
TGCAAACA	0.178
TCAGCCGA	-0.194
GTCGGAAA	0.0412
AACGGTCG	-0.0406
AAGCTCCA	-0.102
GACTTCTA	-0.0932
CAGCAGGC	-0.232
GGGTTGCA	-0.0284
GGGATACC	-0.313
TCGGTAAA	0.114
CCCCGAGG	-0.373
CCAAACTC	-0.0465
TGATACAA	0.163
AATTTCCT	0.189
AGCAGTCA	-0.236
CGTGCTCC	-0.23
CCGCCACC	-0.231
GCCCGGAC	-0.327
AGGCGGCC	-0.301
GCGTCGTA	0.0586

Excerpt of the above (study 2):
Sequence	E-score
TCCTATAA	-0.127
AAGTGGCG	0.0174
AGCGTAAA	0.0108
ATAACTTC	0.0803
CAGCCGCA	0.161
ACCGTGAT	-0.0675
